Assay results pooled from the literature.
Parts stem from different laboratories: compare values within a part only.

Block 1 — technique: aptamer microarray, sandwich; molecule type: DNA with 2'F-ANA; medium: in vitro; concentration: 200 nM; together with: Cy3 exosite-II aptamer, 400 nM; reading: higher = stronger binding; oligonucleotide: GGTTGGTGTGGTTGG
Target: Prothrombin, mature alpha-thrombin (F2, Homo sapiens, UniProt P00734)
Setting: whole 15-mer aptamer, many near background
Modification | mean fluorescence intensity [a.u.]
2'F-ANA at 1 2 3 4 9 10 11 12 13 15 | 623
2'F-ANA at 5 7 8 9 10 11 12 13 15 | 61.7
2'F-ANA at 1 7 15 | 275
2'F-ANA at 4 9 11 12 | 415
2'F-ANA at 1 4 5 8 9 10 15 | 49.4
2'F-ANA at 1 4 6 7 9 11 14 15 | 55.5
2'F-ANA at 1 2 3 4 5 8 10 11 12 13 | 45.3
2'F-ANA at 4 6 8 9 10 15 | 319
2'F-ANA at 2 3 5 6 7 8 9 10 11 13 14 15 | 87.8
2'F-ANA at 1 2 3 4 5 6 7 9 11 12 14 15 | 51.3
2'F-ANA at 1 2 4 5 8 11 12 13 14 | 46.2
2'F-ANA at 2 4 8 9 13 14 | 90.1
2'F-ANA at 1 2 3 4 5 10 14 | 48.1
2'F-ANA at 3 5 6 7 8 9 11 12 14 | 58
2'F-ANA at 1 3 5 7 10 11 13 15 | 46.3
2'F-ANA at 1 4 8 9 10 11 14 15 | 46.1
2'F-ANA at 2 4 5 7 8 9 11 14 | 46.8
2'F-ANA at 1 2 5 7 10 11 12 13 14 15 | 48.9
2'F-ANA at 2 4 8 9 12 14 15 | 131
2'F-ANA at 1 3 4 5 7 10 12 14 15 | 46.4
2'F-ANA at 1 3 4 6 8 11 13 14 | 63.1
2'F-ANA at 4 5 6 10 11 13 | 45.2
2'F-ANA at 1 3 6 8 9 11 14 | 80.6
2'F-ANA at 2 4 9 10 12 13 14 15 | 67.1
2'F-ANA at 4 5 9 12 13 15 | 74.9

Block 2 — technique: protein-binding microarray; molecule type: double-stranded DNA, one strand shown; medium: in vitro; concentration: 2540 nM top; setting: 60-bp whole probe; together with: salmon DNA 0.4 mg/ml; reference: random background probes; reading: higher = stronger binding; all sequences stand within: GCCTAGCAC … GTCTTGATTCGCTTGACGCTGCTG
Target: Interferon regulatory factor 3, full length, phosphomimetic (IRF3, Homo sapiens, UniProt Q14653, residues 1-427, S386D/S396D/S398D/S402D/T404D/S405D)
Sequence of UniProt Q14653 (whole entry, unmodified, looked up): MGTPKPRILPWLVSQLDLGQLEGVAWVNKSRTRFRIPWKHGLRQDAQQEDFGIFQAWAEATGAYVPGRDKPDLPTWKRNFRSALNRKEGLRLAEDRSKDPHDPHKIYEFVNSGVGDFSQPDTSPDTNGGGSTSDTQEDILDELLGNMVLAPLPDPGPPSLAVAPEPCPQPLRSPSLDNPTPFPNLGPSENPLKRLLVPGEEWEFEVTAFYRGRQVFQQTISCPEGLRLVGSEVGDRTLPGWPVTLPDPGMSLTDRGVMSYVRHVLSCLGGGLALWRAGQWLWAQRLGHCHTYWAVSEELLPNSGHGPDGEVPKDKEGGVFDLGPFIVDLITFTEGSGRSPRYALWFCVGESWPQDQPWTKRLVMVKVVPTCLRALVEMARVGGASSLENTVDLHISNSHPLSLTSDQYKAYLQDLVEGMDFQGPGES
Oligonucleotide | fitted relative affinity [z-score]
TTAGGACTGGGGCCTGGGTTAGTGCTA | -1.32
ACCGATTTCCTTCACCCACTGTGCTAG | 2.36
CTGGGTATTTTTCTAAACCAGTGCTAG | 0.659
GACAATCTCAGTCTCGAGACGTGCTAG | 0.611
TTAGATATCAGTTTCTATTAGTGCTAG | 3.41
TGAGGTTTCGGTTTCGGTTAGTGCTAG | 11.7
TTAGATCTCTGTATCGATTAGTGCTAG | 0.63
GACGGTATCGGCACTGGGGACGTGCTA | 0.719
GACGATATCACACTGGAGACGTGCTAG | 0.443
ATCATTTTAGTTTTCATTATGTGCTAG | 3.31
GACGGTATCGACTTTAGGGACGTGCTA | 0.948
TTAGGACTTCTTCTCCTTTAGTGCTAG | 0.574
TTAGGACTGGGGAATCGGTTAGTGCTA | -0.794
CACTCTCAGAATCTCTCATGGTGCTAG | 2.36
TTATATTTCAGTCTCGATTAGTGCTAG | 1.88
TCTATCTGCAGACTCTCACAGTGCTAG | 0.461
ACCTGTTCCCTCATCAGGCTGTGCTAG | 1.5
GACGGTATCCTTATCCTGGCGTGCTAG | 5.43
CTCCCTTTCAGTTTTCCTATGTGCTAG | 3.59
TCACGCTTCATCTCCCAGACTGTGCTA | 0.164
GACGGACTGGAAACTGGGGACGTGCTA | 0.291
GACGGCTTCCTTATCCTGACGTGCTAG | 0.54
TTAGGTCTCCTTCTCTTTTAGTGCTAG | 4.04
TAGTTGCAAGCCATGGGTGGGTGCTAG | -0.513
TTAGATCTCCTTTTCCTTTAGTGCTAG | 3.67

Block 3 — technique: RNA Bind-n-Seq; molecule type: RNA; medium: in vitro; concentration: 365 nM; reference: no-protein control; reading: higher = stronger binding
Target: RNA binding protein fox-1 homolog 2, RRM domain, GST-SBP tag (RBFOX2, Homo sapiens, UniProt O43251-10, residues 100-194)
Setting: natural RNA segment, single round, ends assumed
All sequences stand within: GGGAGUUCUACAGUCCGACGAUC … UGGAAUUCUCGGGUGCCAA
Target sequence (chain): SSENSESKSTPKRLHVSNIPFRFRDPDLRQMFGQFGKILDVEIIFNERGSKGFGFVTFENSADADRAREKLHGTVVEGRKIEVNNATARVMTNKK
Oligonucleotide | RBNS enrichment (R)
UUUAUGCCUAGGCUUGUCAAGAAUCUGUUCAGUCCCUCUCCUUCUCAAUAAAAGCAUCUUCAAGCUUUCAUGUGCCUCCCUCGCAGCUUCUUCUGGGCCUGAGGGAGACC | 0.321
GGAAGAAAGCAAAUGUGUAAAACAGUAGACGUGUGACGUUUAUGAGUAAUGCUGGCUCUGAACAAACUUUUGAAAACUUAGUUGACAGUGUUUUGAGUCAACUGAAAAAA | 0.799
UUCUACACAUAUGCUUUCUGGCAGCGAGUUUAUUGCCAGAUUUUAAACAGGGAGUUAUGUGGUGCUUGUGGCGCUUUCAGAACCCAAAGAUUUGUAGUCUGGAAUCAUGU | 1.8
UCUCCCAAUUAUUUUCAUAUGAAAGCACCUACAAUUAGCCUGUUAGUCCUAUUCAGAUACAUCAAAUAUCAGUGAAUGCUUUACUAUUCGCACAUUUAAGCAUCUUUGUU | 1.66
GCUGGUAGUCAUGUGGGCUUGCCUUCUCUGCCAAACGACUGGGAAACCAAAAUGAGCCCACCUUGUGUUCUUCCUAGCUCCACCCUCCCCGUGCUGCUGUGUUCUGCUCC | 0.577
CAUUUGCUUCUCUCCUUCCUGGAAAGCUUCCCUUUAUGUUUUAUUUUGACCCCAGAUGUCCAGAUGUUUUGCAGUGUCUGGGGCUUGUGUCCCUUGUUCUUCGUUCUGCU | 2
UAGUUUGUUAAUAUGUAUAAUUUAGCAUCUAUUACACUCAUGUAAAUAUGGAGUAAGUAUUGUAAACUAUUUCAUCGCGGGGAUUGUGGGUGUUAUACAUACAUUUAGGA | 0.884
UUCAUGUGGCAGGAAACUGGAAUAUCGCUUUUAAUAAAAUGGAAAAAUAUGCUUCUACAUAUUUACCACCAUAGGCGUUUUGUUCAUAUGAGCCUGGUUUGUGCAAAAUU | 0.581
AUAUUUCCUUCAGGUGUGUGUAAAAUAUGCUGCUUGGAUUGAAAUUCAAAUGGGAUUGAUUAGUCAAGUAACUUGAGACCUCACAGUAAUCUUCACACUUAACCUUAGAC | 0.388
CUCUUCUCACUGGAAGAGCAGAGGGAAACCUGGCCGUCGUGUAUUCUCCUUAUGUUUAAAUGCACAGGCUUAUGUUUAAAUGAACAGAUGUAAAACACAAGCCAGACAGA | 1.43
GGACUCCGUAUGCAUUACAAGUACUUUGAAACGGAUGACCCAGAAUUCUAUAAGUCCAAGGUGUGCUUUAUCCUCAACAAUGACAUGAGUGAGAUGGAGCUGGUCUUUGC | 2.66
GGGUUACAGGUGAUCGCUGGUCUCCUGCCUCCACCCCCUGAGUGCUGGGGUUACAGGUGUGAUCACCUUGCUGGCUUGUGAGGUGCUGGGGACAACCCAGGGCUUCGUGC | 0.257

Block 4 — technique: RNA Bind-n-Seq; molecule type: RNA; medium: in vitro; concentration: 100 nM; reference: input RNA pool; reading: higher = stronger binding
Target: RING finger protein unkempt homolog, zinc fingers 1-6, SBP tag (UNK, Homo sapiens, UniProt Q9C0B0, residues 30-357)
Sequence of UniProt Q9C0B0 (30-357, looked up): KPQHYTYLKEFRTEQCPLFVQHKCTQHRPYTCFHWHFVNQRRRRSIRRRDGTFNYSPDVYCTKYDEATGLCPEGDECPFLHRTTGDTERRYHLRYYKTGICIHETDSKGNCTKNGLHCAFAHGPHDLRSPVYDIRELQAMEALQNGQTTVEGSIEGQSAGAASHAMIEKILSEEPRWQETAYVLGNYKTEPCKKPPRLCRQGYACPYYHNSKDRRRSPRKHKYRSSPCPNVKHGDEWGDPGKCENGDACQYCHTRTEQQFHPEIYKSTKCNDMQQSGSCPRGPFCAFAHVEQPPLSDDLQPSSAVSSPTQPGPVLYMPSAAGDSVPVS
Setting: RNA with constant flanks, vertebrate orthologous sites, ends assumed
All sequences stand within: GGGAGUUCUACAGUCCGACGAUC … CAACAGAGGAUUGAGCAUCA
Oligonucleotide | bound/input enrichment [ratio]
AGCAACCCAAGGUUUCAGGACUGGCUUUAUAAAUAUACCAAAUAGAUAUGGAACUAACAAUAGAAUUGGACAACCAAGACCUUAAUGUACUCUAGUUUCUUUUAAUUUAUUUUUAUGAAG | 0.864
AUUCAAACCUGUGGUACCAUGGCCUCAUGUUGAAGGAGUAGAAGUGGACUUAGAGUCUAUUAGAAGAAAAAACAAGGCGAAAAAUGAACAAGAGCGCCAUGCUGGAGGAGAUAACCAGAA | 0.606
UGGGUUUCUCCUAUUAUUAUCAAGUAGCUGGAAUUGUGAAGGUUGGAGUAGUUAGAUCUUUAGCUUUUAUUCUUUUUUUUUUUUGUAUUACUAUCCAUGUGUAUAAAUUAUUGAUCAUGU | 6.24
GAUUUGGACCUAGGAGCCGAACCAGGGAGCUAGCAAAAGAAAAGCAGACGUGUAAAAAUAUAGCCAUGUGCAGCUGCCCAGCAGCAGUACACCAACUAGCAGCUGUGUUAAAGUAUUUAU | 0.579
UGGGUUACUCCUAUUAUUAUCAAGUAGCUGGAAUUGUGAAGGUCGGAGUAGUUAGAUCUUAGCUUUUAUUCCUUAUUUUUUUUGUAUUACUCUCCAUGUGUAUAAAUUAUUGAUCAUGUU | 5.33
UCCUCAACUUGUUCUAGUUGGUGAUCCUUCAAAGUUGGGUCAGGUAUUAGUGCUAGGUACUAGCAAUGUUCAUUUCUCUGUUGCCAUUGAUCAGAGAGACAGACGUUAAAAACAGUAAUA | 0.692
AGUAGUUUUAAGCUUGUUUGCACAGUUCUUUUUUUCCAUUGGAAAUGGAACUCAUUGCCUUAGGUCCUUUUAAAUAGUGUAUUAUUAUUGUCGGGGCUGGCUCUAUGCUUGAAAAUCAGU | 2.02
AGGAAAUGCUGGCUGCAAACCCUCAGGAUCGCCCAGAUGCUUUUGAACUAGAACUCAGAUUAGUACAAAUUGCAUUUAAAGAUAGUAGCUGGGAAACGUGACACCUAGGUUAUUUGCAAA | 0.891
UCAGUCCCCUGGGCCGGGACAGAUUUUUUUUAACGUCUUGAAACUUAAACUCUGUGCUUGUAGGAGACCGUAACCUUUUUGUCUUUAUUAUUUCUCUAAAAACAAACAACCUCCACCUCC | 0.712
AGGUAGUCUGGGUAGGGGUGAGCAUUAACUUAUAAAGGAAUGAAAUGCUAAAAAUCCUAUUAGUACUAAGUUUAGUGGGAGAAUUUACAUAAACUCUUUUUACAUAAUUCUAAAAUGAAA | 0.587
UAGAUUUUAUAGAUGAACAGGAACAGCAGAGGCUGUUUGAGCUUUGCUUUUUAUAUUUAAAUAGAUACUUUUAUAUGAUGGGUGCUUUGAGUGUAAAUGCAGCAGACUCCAUUUCAGAGG | 1.78

Excerpt of the above (block 4):
Oligonucleotide | bound/input enrichment [ratio]
AGGUAGUCUGGGUAGGGGUGAGCAUUAACUUAUAAAGGAAUGAAAUGCUAAAAAUCCUAUUAGUACUAAGUUUAGUGGGAGAAUUUACAUAAACUCUUUUUACAUAAUUCUAAAAUGAAA | 0.587
AGGAAAUGCUGGCUGCAAACCCUCAGGAUCGCCCAGAUGCUUUUGAACUAGAACUCAGAUUAGUACAAAUUGCAUUUAAAGAUAGUAGCUGGGAAACGUGACACCUAGGUUAUUUGCAAA | 0.891
UCAGUCCCCUGGGCCGGGACAGAUUUUUUUUAACGUCUUGAAACUUAAACUCUGUGCUUGUAGGAGACCGUAACCUUUUUGUCUUUAUUAUUUCUCUAAAAACAAACAACCUCCACCUCC | 0.712
AUUCAAACCUGUGGUACCAUGGCCUCAUGUUGAAGGAGUAGAAGUGGACUUAGAGUCUAUUAGAAGAAAAAACAAGGCGAAAAAUGAACAAGAGCGCCAUGCUGGAGGAGAUAACCAGAA | 0.606
UCCUCAACUUGUUCUAGUUGGUGAUCCUUCAAAGUUGGGUCAGGUAUUAGUGCUAGGUACUAGCAAUGUUCAUUUCUCUGUUGCCAUUGAUCAGAGAGACAGACGUUAAAAACAGUAAUA | 0.692
